Experimental data collected from several papers.
± gives the spread as reported.
Medium: plasma

| SMILES | test | test system | conditions | how to read | Cmax |
| --- | --- | --- | --- | --- | --- |
| CCCC(=O)OCSc1ccccc1C(=O)NCCC(N)=O |  | Sprague-Dawley rat, male | intravenous, 50 mg/kg |  | 3 ± 4.1 ng/mL |
| NC1(c2ccccc2Cl)CCCCC1=O (racemic) |  | male Wistar rats | intraperitoneal, 40 mg/kg single dose |  | 2560 ± 850 ng/mL |
| COc1ccc2c(c1)[C@]13CCCC[C@@H]1[C@H](C2)N(C)CC3 |  | Wistar rat, both sexes | oral, 5 mg/kg, 2 h after pretreatment, together with: single TCE 100 mg/kg |  | 71.8 ± 13.6 ng/mL |
| COc1ccc2c(c1)[C@]13CCCC[C@@H]1[C@H](C2)N(C)CC3 | measured: MDMA | rat | intraperitoneal, 30 mg/kg, three doses, together with: MDMA 20 mg/kg oral | baseline: MDMA with saline | no effect |
| C[C@H]1CNCCc2ccc(Cl)cc21 |  | male Sprague-Dawley rat | subcutaneous, pimavanserin 0.5 + lorcaserin 0.5 mg/kg, pimavanserin 15 min earlier |  | 14.7 ± 0.71 ng/mL |
| Cc1cccc(C)c1OCC(=O)N[C@@H](Cc1ccccc1)[C@@H](O)C[C@H](Cc1ccccc1)NC(=O)[C@H](C(C)C)N1CCCNC1=O |  | male Sprague-Dawley rats | oral, 160 mg/kg, alone |  | 1140 ng/mL |
| CNC(=O)c1ccc(-c2cnn3ccc(C(=O)N(C)c4ccc(Cl)c(C(=O)OC)c4)cc23)cc1 |  | Wistar rats, both sexes | oral, 500 mg/kg/dose, 1000 mg/kg/day, day 1 |  | 3.32 ng/mL |
| CN1CC[C@@]23CCCC[C@@H]2[C@@H]1Cc1ccc(O)cc13 |  | Wistar rat, both sexes | oral, 5 mg/kg DEM, DEM 2 h after pretreatment, together with: TCE 100 mg/kg single pretreatment |  | 19.9 ± 10.9 ng/mL |

A few entries again:
| SMILES | test | test system | conditions | how to read | Cmax |
| --- | --- | --- | --- | --- | --- |
| CN1CC[C@@]23CCCC[C@@H]2[C@@H]1Cc1ccc(O)cc13 |  | Wistar rat, both sexes | oral, 5 mg/kg DEM, DEM 2 h after pretreatment, together with: TCE 100 mg/kg single pretreatment |  | 19.9 ± 10.9 ng/mL |
